Measured values collected from several papers.
Each line is one published result; not all experiments were run side by side. “And” joins repeats or separate records; there may be more than shown. ± marks the error that the study gave. Values after ≈ are worked out from the molar mass of the structure shown.
Chain of UniProt Q9NTG7 (whole entry, looked up): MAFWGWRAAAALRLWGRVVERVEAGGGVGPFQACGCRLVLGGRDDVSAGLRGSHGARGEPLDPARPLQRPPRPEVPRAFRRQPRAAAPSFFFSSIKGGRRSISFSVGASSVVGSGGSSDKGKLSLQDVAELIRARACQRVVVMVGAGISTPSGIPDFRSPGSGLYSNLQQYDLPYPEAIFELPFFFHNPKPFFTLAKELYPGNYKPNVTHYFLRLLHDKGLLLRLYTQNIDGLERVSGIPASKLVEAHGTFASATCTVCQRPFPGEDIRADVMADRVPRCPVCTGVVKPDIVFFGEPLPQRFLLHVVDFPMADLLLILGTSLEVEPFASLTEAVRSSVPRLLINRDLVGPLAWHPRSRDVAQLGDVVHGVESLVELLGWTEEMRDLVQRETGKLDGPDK
Chain of UniProt Q13188 (whole entry, looked up): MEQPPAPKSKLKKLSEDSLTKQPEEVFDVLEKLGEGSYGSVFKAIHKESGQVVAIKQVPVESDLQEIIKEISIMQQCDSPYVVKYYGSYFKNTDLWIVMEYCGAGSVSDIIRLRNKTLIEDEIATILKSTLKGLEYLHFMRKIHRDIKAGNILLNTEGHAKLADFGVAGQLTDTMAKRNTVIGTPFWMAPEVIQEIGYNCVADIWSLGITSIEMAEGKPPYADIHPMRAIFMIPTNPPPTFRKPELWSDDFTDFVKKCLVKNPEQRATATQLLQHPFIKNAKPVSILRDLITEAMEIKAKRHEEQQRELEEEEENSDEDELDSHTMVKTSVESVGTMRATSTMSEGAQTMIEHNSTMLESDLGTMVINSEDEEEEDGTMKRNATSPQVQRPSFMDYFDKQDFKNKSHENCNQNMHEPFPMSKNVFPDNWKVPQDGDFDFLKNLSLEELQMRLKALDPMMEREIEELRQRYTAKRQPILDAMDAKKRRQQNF
Chain of UniProt Q9Y570 (whole entry, looked up): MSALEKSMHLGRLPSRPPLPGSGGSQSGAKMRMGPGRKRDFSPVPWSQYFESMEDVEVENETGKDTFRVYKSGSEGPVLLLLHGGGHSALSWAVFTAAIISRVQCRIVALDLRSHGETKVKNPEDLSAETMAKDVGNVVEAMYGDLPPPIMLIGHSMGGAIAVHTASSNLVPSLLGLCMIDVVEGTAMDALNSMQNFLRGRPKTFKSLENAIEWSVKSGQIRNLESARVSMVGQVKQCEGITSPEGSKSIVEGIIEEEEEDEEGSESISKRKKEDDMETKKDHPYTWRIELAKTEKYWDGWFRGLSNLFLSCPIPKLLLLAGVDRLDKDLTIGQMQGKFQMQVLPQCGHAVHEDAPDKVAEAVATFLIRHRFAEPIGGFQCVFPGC

Under “head twitch count”, CC(C)NCCc1c[nH]c2cccc(O)c12.O=C(O)/C=C/C(=O)O is recorded as 6.3 ± 0.4 (C57BL/6J mice; subcutaneous, 0.3 mg/kg).
With CCCCCCCCCCCC[N+](C)(C)CCOCC[N+](C)(C)CCCCCCCCCCCC.[Br-].[Br-] the protection was 41.5 ± 6.6% (influenza A virus A/PR/8/34 (H1N1); concentration not given, post-treatment).
C[C@@H](O)[C@@H](CO)NC(=O)[C@@H](CCCNC(=N)N)NC(=O)[C@@H]1CCCN1C(=O)[C@@H]1CSSC[C@H](NC(=O)[C@H](Cc2ccccc2)NC(=O)CN2CCN(CC(=O)O)CCN(CC(=O)O)CCN(CC(=O)O)CC2)C(=O)N[C@@H](Cc2ccc(O)cc2)C(=O)N[C@@H](Cc2ccccc2)C(=O)N[C@@H](CCC(N)=O)C(=O)N[C@@H](CC(N)=O)C(=O)N1 [gallium-68 labelled] gave a tissue uptake of 0.05 %ID/g (healthy Wistar rat, brain; intravenous, 8 MBq, 60 min, individual animals).
For COc1cc2c(Oc3ccc4[nH]c(C)cc4c3F)ccnc2cc1OCC1(N)CC1, “incidence of adverse event” read 2.9% (item: grade 1 or 2 blurred vision; paediatric high-risk refractory sarcoma; whole group).
The tissue uptake of CC[C@H](C)[C@H](NC(=O)[C@H](Cc1ccccc1)NC(=O)[C@H](CCC(=O)O)NC(=O)[C@H](CCCNC(=N)N)NC(=O)[C@H](C)NC(=O)[C@H](C)NC(=O)[C@H](CCC(N)=O)NC(=O)[C@H](CCC(=O)O)NC(=O)[C@H](CCC(=O)O)NC(=O)[C@H](CC(C)C)NC(=O)[C@H](Cc1ccc(O)cc1)NC(=O)[C@H](CO)NC(=O)[C@H](CO)NC(=O)[C@@H](NC(=O)[C@H](CC(=O)O)NC(=O)[C@H](CO)NC(=O)[C@@H](NC(=O)[C@H](Cc1ccccc1)NC(=O)[C@@H](NC(=O)CNC(=O)[C@H](CCC(=O)O)NC(=O)[C@H](C)NC(=O)CCc1c[nH]cn1)[C@@H](C)O)[C@@H](C)O)C(C)C)C(=O)N[C@@H](C)C(=O)N[C@@H](Cc1c[nH]c2ccccc12)C(=O)N[C@@H](CC(C)C)C(=O)N[C@H](C(=O)N[C@@H](CCCNC(=N)N)C(=O)NCC(=O)N[C@@H](CCCNC(=N)N)C(=O)N[C@@H](CCCCNC(=O)COCCOCCNC(=O)COCCOCCNC(=O)CC[C@H](NC(=O)CCCCCCCCCCCCCCCCC(=O)O)C(=O)O)C(=O)NCC(=O)NCC(=O)N[C@@H](CO)C(=O)N[C@@H](CCCCNc1c(NCCCCCN(O)C(=O)CCC(=O)NCCCCCN(O)C(=O)CCC(=O)NCCCCCN(O)C(C)=O)c(=O)c1=O)C(=O)O)C(C)C [zirconium-89 labelled] is reported as 6.57 %ID/g (ex vivo gamma counting; rat, kidney; subcutaneous, 3 nmol/kg, 72 h, with: [89Zr]-labelled peptide).
The inhibition of C[C@]12CC[C@H]3[C@@H](CCC4=CC(=O)CC[C@@]43C)[C@@H]1CC[C@@H]2O is reported as > 50% (human UGT; glucuronidation; human liver microsomes; 200 µM, 60 min, with: FBI-COOH 50 µM).
The plasma concentration of O=C1c2c(O)c(=O)ccn2N([C@@H]2c3ccccc3SCc3c2ccc(F)c3F)[C@@H]2COCCN12 is reported as 25.7 ng/mL (BALB/c mice, plasma; oral, 5 mg/kg baloxavir marboxil, 4 h).
CCCCNCCc1c[nH]c2cccc(O)c12.O=C(O)/C=C/C(=O)O — result for “head twitch count”: 7.5 ± 1.6 (C57BL/6J mice; subcutaneous, 1 mg/kg).
With C[C@H]1CN(c2n[nH]c3nc(N[C@H]4CC[C@H](NS(=O)(=O)CCC(F)(F)F)CC4)ncc23)CCO1 the remaining binding was 1.12 (Splicing factor 3B subunit 3 (Homo sapiens, UniProt Q15393); Kinobeads competition, item: SF3B3; 0.8 µM, unit not given; relative to: vehicle).
CCCCCCCCCCCCCCCCCC[N+](C)(C)CCCCCCCCCCCC[N+](C)(C)CCCCCCCCCCCCCCCCCC.[Br-].[Br-] gave a protection of 62.5 ± 3.1% (influenza A virus A/PR/8/34 (H1N1); concentration not given, co-treatment).
For CCCCCC(=O)N[C@H]1CCOC1=O, the inhibition was 12% (ExpR2 (Pectobacterium carotovorum); cellulase activity, antagonist; Pectobacterium carotovorum, single-ExpR2 strain; 5 µM, 4 h, with: OHHL 5 µM).
For O=C(O)/C=C/C(=O)O.Oc1cccc2[nH]cc(CCNC3CCCCC3)c12, “head twitch count” read 7.7 ± 1.3 (C57BL/6J mice; subcutaneous, 1 mg/kg).
CCCCCCCCCCCCCCCC[N+](C)(C)Cc1ccc(C[N+](C)(C)CCCCCCCCCCCCCCCC)cc1.[Br-].[Br-]: “HA titre reduction” 1.5 ± 0.5 log units (influenza A virus A/PR/8/34 (H1N1); concentration not given, co-treatment).
CCNCCc1c[nH]c2cccc(O)c12.CCNCCc1c[nH]c2cccc(O)c12.O=C(O)CCC(=O)O — result for “head twitch response”: 15.8 ± 2.8 count/30 min (C57BL/6J mice; subcutaneous, 1 mg/kg).
For COc1cccc(C(=O)NN(C(=O)c2cc(C)cc(C)c2)C(C)(C)C)c1C, adult lifespan read “no effect” (Anopheles funestus; FUMOZ, pyrethroid-resistant; topical, 0.4 %; relative to: control).
CS(=O)(=O)CCCn1c(Cn2c(=O)n(CC(F)(F)F)c3ccncc32)cc2cc(Cl)ccc21: “LS mean difference vs placebo” -1.4 log10 copies/mL (respiratory syncytial virus; RT-qPCR; hospitalized infants 1-24 months, nasal swab; oral, 1-9 mg/kg daily, day 4, all doses combined; relative to: placebo).
CC(C)C[C@@H]1NC(=O)[C@H](CC(C)C)NC(=O)[C@H](Cc2c[nH]c3ccccc23)NC(=O)[C@H](CO)NC(=O)[C@H](Cc2c[nH]c3ccccc23)NC(=O)[C@@H]2CCCN2C(=O)[C@H](CC(C)C)NC(=O)[C@H](Cc2c[nH]cn2)NC(=O)[C@@H]2CCCN2C(=O)[C@H](CC(N)=O)NC(=O)[C@H](C)NC(=O)[C@H](Cc2ccc(O)cc2)NC(=O)[C@H](CS)NC(=O)[C@H](CCCCNC(=O)CN2CCN(CC(=O)O)CCN(CC(=O)O)CCN(CC(=O)O)CC2)NC1=O [lutetium-177 labelled] has a tumour uptake of 6.58 ± 0.98 %ID (BALB/c mice female 4T1 tumour, 4T1 tumour; intravenous, 3.7 MBq, 4 h, unblocked).
For COc1cc(Nc2ncc(F)c(Nc3ccc4c(n3)NC(=O)C(C)(C)O4)n2)cc(OC)c1OC, the IC50 was > 10 µM (SIRT3 (Homo sapiens, UniProt Q9NTG7)).
The distance travelled of C=CCNCCc1c[nH]c2cccc(O)c12.C=CCNCCc1c[nH]c2cccc(O)c12.O=C(O)/C=C/C(=O)O is reported as 2540 ± 241 cm (C57BL/6J mice; subcutaneous, 10 mg/kg, 30 min).
The mucositis incidence of CO[C@H]1C[C@@H]2CC[C@@H](C)[C@@](O)(O2)C(=O)C(=O)N2CCCC[C@H]2C(=O)O[C@H]([C@H](C)C[C@@H]2CC[C@@H](OC(=O)NCCOCCOCCOCCOCCOCCOCCOCCOCCC(=O)N3CCc4cc(Cn5nc(-c6ccc7oc(N)nc7c6)c6c(N)ncnc65)ccc4C3)[C@H](OC)C2)C[C@@H](O)[C@H](C)/C=C(\C)[C@@H](O)[C@@H](OC)C(=O)[C@H](C)C[C@H](C)/C=C/C=C/C=C/1C is reported as 25% (patients with advanced solid tumours; intravenous, 16 mg weekly, grade 3 or higher).
For CN1CCN(S(=O)(=O)c2cc([N+](=O)[O-])ccc2N(CCOS(C)(=O)=O)CCOS(C)(=O)=O)CC1, “EFS ratio (T/C)” read 1 (NSG mice, sample CC PDX; intraperitoneal, 25 mg/kg weekly x3; relative to: treated over vehicle).
For CCC(CC)O[C@@H]1C=C(C(=O)O)C[C@H](N)[C@H]1NC(C)=O, the protection was 73.8 ± 0.6% (influenza A virus A/PR/8/34 (H1N1); concentration not given, pre-treatment).
C[C@H]1O[C@@H](O[C@H]2CC[C@@]3(C)[C@@H](CC[C@]4(C)[C@@H]3C=C[C@]35OC[C@@]6(CCC(C)(C)C[C@H]63)[C@@H](O)C[C@]54C)[C@]2(C)CO)[C@H](O)[C@@H](O[C@@H]2O[C@H](CO)[C@@H](O)[C@H](O)[C@H]2O)[C@H]1O has an AST/ALT ratio of 2.47 and 3.28 and 2.39 and 2.71 and 2.69 and 2.83 (mouse, ethanol-fed, hepatic SIRT1 knockdown, plasma; dose not given, high dose).
COc1ccc(N2C(=O)N(c3c(C)cccc3Cl)Cc3cnc(Nc4ccc(C5CCN(C)CC5)cc4OC)nc32)nc1 gave an inhibition of 7% (STK3 (Homo sapiens, UniProt Q13188); kinase activity, inhibitor; 0.5 µM, MST2).
With CC[C@H](C)[C@H](NC(=O)[C@H](C)NC(=O)[C@H](CCCCN)NC(=O)[C@H](CC(C)C)NC(=O)[C@H](C)NC(=O)[C@@H](NC(=O)[C@H](Cc1c[nH]cn1)NC(=O)[C@H](CC(C)C)NC(=O)[C@@H](NC(=O)[C@@H](NC(=O)[C@H](CCCCN)NC(=O)[C@H](C)NC(=O)[C@H](C)NC(=O)[C@H](CO)NC(=O)[C@H](CCCCN)NC(=O)[C@H](Cc1ccccc1)NC(=O)[C@@H](NC(=O)[C@H](CCCCN)NC(=O)[C@H](CC(C)C)NC(=O)[C@H](Cc1ccccc1)NC(=O)[C@H](CO)NC(=O)[C@H](CCCCN)NC(=O)[C@H](Cc1c[nH]c2ccccc12)NC(=O)[C@H](CCCCN)NC(C)=O)[C@@H](C)O)[C@@H](C)O)C(C)C)[C@@H](C)O)C(=O)N[C@@H](CO)C(=O)N[C@@H](CO)C(N)=O the MIC90 was 32 µg/mL (≈ 10.9 µM) (Streptococcus pyogenes; erythromycin-resistant; 19 strains).
With COc1cc(CCC[P+](c2ccccc2)(c2ccccc2)c2ccccc2)c(OC)c2c1OCO2.[I-] the TGI was > -4 log M (K562; SRB).
C=CCN1CC[C@]23c4c5ccc(O)c4O[C@H]2C(=O)CC[C@@]3(O)[C@H]1C5 gave a % MPE of 10.6% and -9.86% and -10.1% and 11.3% and -36.4% and 5.34% (tail-flick test; male ICR-CD1 mice; subcutaneous, 5 mg/kg, 30 min).
For CC(C)(C)NCCc1c[nH]c2cccc(O)c12.CC(C)(C)NCCc1c[nH]c2cccc(O)c12.O=C(O)/C=C/C(=O)O, “head twitch count” read 4.5 ± 1 (C57BL/6J mice; subcutaneous, 0.03 mg/kg).
For CC[C@H](C)[C@@H]1NC(=O)[C@@H]2CCCN2C(=O)[C@H](CC(C)C)NC(=O)[C@H](CC(C)C)NC(=O)CNC(=O)[C@@H](NC(=O)[C@@H](NC(=O)[C@H](CC(=O)O)NC(=O)CNC(=O)[C@@H](NC(=O)[C@H](C)NC(=O)CNC(=O)[C@H](CCCCN)NC(=O)[C@H](CC(C)C)NC(=O)[C@H](CC(C)C)NC(=O)[C@H](CCCCN)NC(=O)CNC(=O)[C@@H](NC(=O)[C@@H](N)CC(C)C)C(C)C)C(C)C)C(C)C)CSSC[C@@H](C(=O)O)NC1=O, “log2 fold change” read -3.11 (RNA-seq, item: Rab11fip1 mRNA; mouse traumatic brain injury, frontal cortex and hippocampus; dose not given; relative to: TBI plus compound vs TBI).
For CCCNCCc1c[nH]c2cccc(O)c12.CCCNCCc1c[nH]c2cccc(O)c12.O=C(O)/C=C/C(=O)O, “head twitch count” read 9.5 ± 0.8 (C57BL/6J mice; subcutaneous, 0.3 mg/kg).
O=C(c1ccc(Cl)cc1)N1CCN2C(=O)N(OC(=O)N3CCOc4ccccc43)C(=O)C2C1 (stereo not shown) gave a median ratio of 1.05 (Protein phosphatase methylesterase 1 (Homo sapiens, UniProt Q9Y570); enzyme activity, inhibitor, MS-based ABPP; SW-620 in situ; 10 µM, 2 h, 37 °C; relative to: compound over DMSO, lower = stronger inhibition).

Some of these lines once more:
The tissue uptake of CC[C@H](C)[C@H](NC(=O)[C@H](Cc1ccccc1)NC(=O)[C@H](CCC(=O)O)NC(=O)[C@H](CCCNC(=N)N)NC(=O)[C@H](C)NC(=O)[C@H](C)NC(=O)[C@H](CCC(N)=O)NC(=O)[C@H](CCC(=O)O)NC(=O)[C@H](CCC(=O)O)NC(=O)[C@H](CC(C)C)NC(=O)[C@H](Cc1ccc(O)cc1)NC(=O)[C@H](CO)NC(=O)[C@H](CO)NC(=O)[C@@H](NC(=O)[C@H](CC(=O)O)NC(=O)[C@H](CO)NC(=O)[C@@H](NC(=O)[C@H](Cc1ccccc1)NC(=O)[C@@H](NC(=O)CNC(=O)[C@H](CCC(=O)O)NC(=O)[C@H](C)NC(=O)CCc1c[nH]cn1)[C@@H](C)O)[C@@H](C)O)C(C)C)C(=O)N[C@@H](C)C(=O)N[C@@H](Cc1c[nH]c2ccccc12)C(=O)N[C@@H](CC(C)C)C(=O)N[C@H](C(=O)N[C@@H](CCCNC(=N)N)C(=O)NCC(=O)N[C@@H](CCCNC(=N)N)C(=O)N[C@@H](CCCCNC(=O)COCCOCCNC(=O)COCCOCCNC(=O)CC[C@H](NC(=O)CCCCCCCCCCCCCCCCC(=O)O)C(=O)O)C(=O)NCC(=O)NCC(=O)N[C@@H](CO)C(=O)N[C@@H](CCCCNc1c(NCCCCCN(O)C(=O)CCC(=O)NCCCCCN(O)C(=O)CCC(=O)NCCCCCN(O)C(C)=O)c(=O)c1=O)C(=O)O)C(C)C [zirconium-89 labelled] is reported as 6.57 %ID/g (ex vivo gamma counting; rat, kidney; subcutaneous, 3 nmol/kg, 72 h, with: [89Zr]-labelled peptide).
The inhibition of C[C@]12CC[C@H]3[C@@H](CCC4=CC(=O)CC[C@@]43C)[C@@H]1CC[C@@H]2O is reported as > 50% (human UGT; glucuronidation; human liver microsomes; 200 µM, 60 min, with: FBI-COOH 50 µM).
The plasma concentration of O=C1c2c(O)c(=O)ccn2N([C@@H]2c3ccccc3SCc3c2ccc(F)c3F)[C@@H]2COCCN12 is reported as 25.7 ng/mL (BALB/c mice, plasma; oral, 5 mg/kg baloxavir marboxil, 4 h).
CCCCNCCc1c[nH]c2cccc(O)c12.O=C(O)/C=C/C(=O)O — result for “head twitch count”: 7.5 ± 1.6 (C57BL/6J mice; subcutaneous, 1 mg/kg).
